{"data": "Measured values from different studies", "NMT1": "Glycylpeptide N-tetradecanoyltransferase 1 (NMT1, Homo sapiens, UniProt P30419)", "NR3C1": "Glucocorticoid receptor (NR3C1, Homo sapiens, UniProt P04150)", "note": "Protocols differ between the studies behind these lines. Numbers after ± are the reported error."}
{"Structure (SMILES)": "CC(C)C[C@H](NC(=O)[C@H](CCC(N)=O)NC(=O)[C@H](CCC(N)=O)NC(=O)[C@H](CO)NC(=O)[C@H](C)NC(=O)[C@H](CCCCN)NC(=O)[C@H](CCC(N)=O)NC(=O)CN)C(=O)O", "target": "NMT1", "test": "substrate", "endpoint": "Km", "value": "15.7 µM"}
{"Structure (SMILES)": "C[C@H]1CCCN1Cc1cc2cnc(NC(=O)c3ccc4c(cnn4C)c3)cc2[nH]1", "target": "Protein ENL (MLLT1, Homo sapiens, UniProt Q03111, Y78A)", "test": "cellular thermal shift", "system": "HEK293 expressing Flag-ENL Y78A", "endpoint": "thermal stabilisation", "value": "decreased"}
{"Structure (SMILES)": "CC(C)C[C@@H](NC(=O)[C@H](O)Cc1ccccc1)C(=O)N1[C@H](C(=O)NCCC2=CCN(C(=N)N)C2)C[C@@H]2CC[C@@H](O[C@H]3OC[C@@H](O)[C@H](O)[C@H]3O)C[C@@H]21", "target": "Plasminogen (PLG, Homo sapiens, UniProt P00747)", "test": "enzyme activity", "conditions": "100 µg/mL", "endpoint": "inhibition", "value": "no inhibition"}
{"Structure (SMILES)": "Cc1cc(C)c(CNC(=O)c2cc(-c3ccc(N4CCN(CCNC(=O)CC56CC7CC(CC(C7)C5)C6)CC4)nc3)cc3c2cnn3C(C)C)c(=O)[nH]1", "target": "ADRA1A (Homo sapiens, UniProt P35348)", "test": "radioligand binding", "conditions": "10 µM", "endpoint": "inhibition", "value": "50%"}
{"Structure (SMILES)": "CC[C@@H]1C(=O)N(C)c2cnc(Nc3ccc(C(=O)NC4CCN(C)CC4)cc3OC)nc2N1C1CCCC1", "target": "ASH1L (Homo sapiens, UniProt Q9NR48)", "conditions": "10 µM", "endpoint": "delta Tm", "value": "-0.11 ± 1.04 °C"}
{"Structure (SMILES)": "CCN1CCN(Cc2ccc(NC(=O)c3ccc(C)c(Oc4ncnc5cc(OC)c(OC)cc45)c3)cc2C(F)(F)F)CC1", "target": "SLK (Homo sapiens, UniProt Q9H2G2)", "test": "KINOMEscan competition binding", "conditions": "1.0 µM", "endpoint": "residual probe binding", "value": "0.8%"}
{"Structure (SMILES)": "CN1CCC[C@H](C(=O)OCC(=O)[C@]2(O)CC[C@@H]3[C@H]4CCC5=CC(=O)CC[C@@]5(C)[C@H]4[C@@H](O)C[C@]32C)C1", "target": "NR3C1", "test": "nuclear translocation, agonist, enzyme fragment complementation", "endpoint": "Hill slope", "value": 1.26}
{"Structure (SMILES)": "Fc1cc(-c2ccc3c(n2)[nH]c2ccncc23)ccn1 [isotope labelled]", "target": "Microtubule-associated protein tau, paired helical filaments (MAPT, Homo sapiens, UniProt P10636)", "test": "radioligand binding", "system": "PHF tau brain homogenate", "conditions": "4.94 nM", "how to read": "higher = more binding", "endpoint": "specific binding", "value": "5.41 a.u."}
{"Structure (SMILES)": "N=C(N)NCCC[C@H](NC(=O)[C@H](CCCNC(=N)N)NC(=O)[C@H](CCCCN)NC(=O)[C@H](CO)NC(=O)[C@H](Cc1ccccc1)NC(=O)[C@H](Cc1ccccc1)NC(=O)[C@H](CS)NC(=O)CN)C(=O)O", "target": "NMT1", "test": "substrate", "endpoint": "Km", "value": "13.6 µM"}
{"Structure (SMILES)": "CCCCCCCCCCCCCC(=O)O[C@H](CCCCCCCCCCC)CC(=O)O[C@@H]1[C@@H](NC(=O)C[C@@H](CCCCCCCCCCC)OC(=O)CCCCCCCCCCC)[C@H](OC[C@H]2O[C@H](OP(=O)(O)O)[C@H](NC(=O)C[C@H](O)CCCCCCCCCCC)[C@@H](OC(=O)C[C@H](O)CCCCCCCCCCC)[C@@H]2O)O[C@H](CO)[C@H]1OP(=O)(O)O", "target": "msbA (Escherichia coli, UniProt P60752)", "test": "fluorescence quenching", "conditions": "concentration not given, 10 °C, daunorubicin site occupied first", "how to read": "reference: daunorubicin site empty over occupied", "endpoint": "binding affinity decrease", "value": "~7 fold"}
{"Structure (SMILES)": "C[C@H]1C[C@@H]2[C@H]3CCC4=CC(=O)C=C[C@@]4(C)[C@]3(Cl)[C@@H](Cl)C[C@]2(C)[C@]1(O)C(=O)COP(=O)(O)O", "target": "NR3C1", "test": "nuclear translocation, agonist, enzyme fragment complementation", "endpoint": "maximal activity", "value": "200%"}
{"Structure (SMILES)": "CC1=Cc2ccccc2C12CCN(C1Cc3ccccc3CC1O)CC2 (single isomer, unassigned)", "target": "Vesicular acetylcholine transporter (Rattus norvegicus, UniProt Q62666)", "how to read": "reference: Ki sigma2 (rat liver) over Ki VAChT", "endpoint": "selectivity ratio", "value": 290}
{"Structure (SMILES)": "O=C(Nc1cccnn1)N1CC(Oc2ccc(-c3ccccc3F)cn2)C1", "target": "FAAH (Homo sapiens, UniProt O00519)", "test": "enzyme activity, inhibitor", "system": "healthy humans, blood", "conditions": "oral, dose not given, repeated dosing", "endpoint": "dose for complete inhibition", "value": "50 mg"}
{"Structure (SMILES)": "CCCn1c(=O)c2[nH]c(-c3ccc(OCC(=O)NCCNC(=O)CCCCCNC(=O)COc4ccc(/C=C/C5=[N+]6C(=Cc7ccc(-c8cccs8)n7[B-]6(F)F)C=C5)cc4)cc3)nc2n(CCC)c1=O", "target": "ADORA1 (Homo sapiens, UniProt P30542)", "test": "NanoBRET saturation binding", "system": "HEK293T expressing NanoLuc-tagged receptor", "how to read": "reference: maximum signal", "endpoint": "Bmax", "value": "56 ± 5%"}
{"Structure (SMILES)": "O=C1CCC(N2C(=O)c3cccc(NCCOCCOCCOCCN4CCN(c5ccc(-c6ccc7c(c6)C(=O)N(C(C(=O)Nc6nccs6)c6ccccc6)C7)cn5)CC4)c3C2=O)C(=O)N1 (stereo not drawn)", "target": "EGFR (Homo sapiens, UniProt P00533, C797S/L858R/T790M)", "test": "degrader, Western blot", "system": "Ba/F3 EGFR L858R/T790M/C797S", "conditions": "0.1 µM, 24 h", "endpoint": "degradation", "value": "74%"}
{"Structure (SMILES)": "COC(=O)c1c(O)cc(O)c(Cl)c1CCc1ccc(O)cc1Cc1ccccc1", "target": "Endoplasmin (HSP90B1, Canis lupus familiaris, UniProt P41148)", "test": "fluorescence polarization", "conditions": "with: FITC-geldanamycin tracer", "how to read": "reference: Grp94 over Hsp90α", "endpoint": "selectivity ratio", "value": "3 fold"}
{"Structure (SMILES)": "O=C(Nc1ccc(Cl)cc1)C(NS(=O)(=O)c1cccs1)c1ccccc1 (single isomer, unassigned)", "target": "Uracil nucleotide/cysteinyl leukotriene receptor, long isoform (GPR17, Homo sapiens, UniProt Q13304)", "test": "calcium mobilization, antagonist", "system": "1321N1 stably expressing GPR17", "conditions": "fitted at highest concentration", "how to read": "higher = stronger inhibition", "endpoint": "Emax", "value": "94.1 ± 3.22%"}
{"Structure (SMILES)": "COc1cc(CC(=O)NCC(NC(=O)C(CCCNC(=O)c2cccc(I)c2)NC(=O)C(Cc2ccc(C(F)(F)P(=O)(O)O)cc2)NC(=O)c2ccc(C)c(Br)c2)C(N)=O)ccc1O (stereo not drawn)", "target": "PTPN13 (Homo sapiens, UniProt Q12923)", "test": "enzyme activity", "conditions": "10 µM", "endpoint": "inhibition", "value": "no inhibition"}
{"Structure (SMILES)": "Fc1cccc(-n2cnc3c(NCc4nc5cc(Cl)ccc5[nH]4)nc(N4CCNCC4)nc32)c1", "target": "FLT3 (Homo sapiens, UniProt P36888, K663Q)", "test": "KINOMEscan competition binding", "conditions": "10 µM", "how to read": "reference: control", "endpoint": "remaining binding", "value": "13%"}
{"Structure (SMILES)": "C[C@@]12CCC(=O)C=C1CC[C@H]1C2[C@@H](O)C[C@]2(C)[C@@H]1CC[C@@]2(O)C(=O)COC(=O)C1CCCC1 (stereo partly drawn)", "target": "NR3C1", "test": "nuclear translocation, agonist, enzyme fragment complementation", "endpoint": "Hill slope", "value": 0.54}
{"Structure (SMILES)": "CCc1c(-c2ccccc2)nn2c(=O)cc(-c3cccc(C(=O)O)c3)[nH]c12", "target": "BLVRA (Homo sapiens, UniProt P53004)", "test": "enzyme activity, inhibitor", "conditions": "10 µM, with: biliverdin IXα 25 µM", "endpoint": "remaining activity", "value": "97%"}
{"Structure (SMILES)": "CC[C@H](C)[C@H](NC(=O)[C@H](CCCCN)NC(=O)[C@H](CO)NC(=O)[C@H](CC(C)C)NC(=O)[C@@H](NC(=O)[C@H](CCCCN)NC(=O)CN)C(C)C)C(=O)N[C@@H](Cc1ccccc1)C(=O)O", "target": "NMT1", "test": "substrate", "endpoint": "Km", "value": "4.4 µM"}
{"Structure (SMILES)": "Nc1ncnc2c1ncn2[C@@H]1O[C@H](COP(=O)(O)OP(=O)(O)OP(=O)(O)O)[C@@H](O)[C@H]1O", "target": "Bcs1l (Mus musculus, UniProt Q9CZP5)", "test": "conformational turnover, HS-AFM line scanning", "conditions": "ambient, 20% cardiolipin membrane", "endpoint": "Km", "value": "~0.2 µM"}
{"Structure (SMILES)": "N=C(N)NCCC[C@H](NC(=O)[C@H](CS)NC(=O)CN)C(=O)N[C@@H](CCC(N)=O)C(=O)N[C@@H](CO)C(=O)N[C@@H](CO)C(=O)N[C@@H](CCC(=O)O)C(=O)N[C@@H](CCC(=O)O)C(=O)O", "target": "NMT1", "test": "substrate", "endpoint": "Km", "value": "15.7 µM"}
{"Structure (SMILES)": "O=c1c(O[C@@H]2O[C@H](CO)[C@@H](O)[C@H](O)[C@H]2O)c(-c2cc(O)c(O[C@@H]3O[C@H](CO)[C@@H](O)[C@H](O)[C@H]3O)c(O)c2)oc2cc(O)cc(O)c12", "target": "Estrogen receptor (ESR1, Homo sapiens, UniProt P03372)", "test": "DNA binding array formation, PRL-HeLa cells", "how to read": "reference: EC50 ERβ over EC50 ERα", "endpoint": "selectivity ratio", "value": 1.17}
{"Structure (SMILES)": "CC(C)C[C@H](NC(=O)[C@H](CS)NC(=O)[C@H](CC(N)=O)NC(=O)CN)C(=O)N[C@@H](CCCCN)C(=O)N[C@@H](CO)C(=O)N1CCC[C@H]1C(=O)N[C@H](C(=O)O)[C@@H](C)O", "target": "NMT1", "test": "substrate", "endpoint": "Km", "value": "16.7 µM"}
{"Structure (SMILES)": "O=C(/C=C/c1nc2ccccc2[nH]1)c1c(-c2ccccc2)c2cc(Cl)ccc2[nH]c1=O", "target": "IKBKB (Homo sapiens, UniProt O14920)", "test": "SelectScreen profiling", "conditions": "concentration not given, panel of 100 kinases", "endpoint": "kinase inhibition", "value": "inhibited"}
